# Published values from different studies.
# Lines come from different studies, so protocols differ. ± marks the error that the study gave.
Substance,target or system,assay,test system,conditions,scale,quantity,result
ILPWTWPWWPWRR,Escherichia coli,,"peptide, K-12 MG1655, Mueller-Hinton broth","concentration not given, 37 °C, unit not given",baseline: no peptide,growth rate,0.517
RRHQRSRRPYHRMPNP,Escherichia coli,"bacterial survival, plate count",peptide,"20 µM, 4 h, room temperature",baseline: untreated control,bacterial killing,21.1%
gramicidin D,Escherichia coli,checkerboard,tetracycline-resistant (pBR322),"20 µM, together with: tetracycline",,tetracycline MIC,900 ± 100 µM
RWRYRRRGYLAMG,Escherichia coli,"bacterial survival, plate count",peptide,"20 µM, 4 h, room temperature",baseline: untreated control,bacterial killing,25.6%
insulin human,,measured: RIMS1 mRNA,"EcoHIV-infected mouse, brain","i.p., dose not given",baseline: PBS,fold change,1.01
Polymyxin B,Escherichia coli,broth microdilution,E24 clinical isolate,20 h,,MIC,2 µg/mL
colistin,Escherichia coli,,"ATCC BAA-2452, NDM-1",,,MIC,≤ 0.12 µg/mL
ILPWSWPWWPWRR,Escherichia coli,,"peptide, K-12 MG1655, Mueller-Hinton broth","concentration not given, 37 °C, unit not given",baseline: no peptide,growth rate,0.229
benzalkonium chloride,Escherichia coli,"bacterial survival, bioluminescence",bioluminescent,"1 h, dark",,IC50,19.7 µM
RRNQKRKRGYNSV,Escherichia coli,"bacterial survival, plate count",peptide,"20 µM, 4 h, room temperature",baseline: untreated control,bacterial killing,42.6%
ILPWVWPWWPWRR,Escherichia coli,,"peptide, K-12 MG1655, Mueller-Hinton broth","concentration not given, 37 °C, unit not given",baseline: no peptide,growth rate,0.157
Polymyxin B,Escherichia coli,"broth microdilution, MH medium",carbapenem-resistant NCCP 16046,"16 h, 37 °C",,MIC,2 µM
vancomycin,Escherichia coli,bacterial growth,,,,IC50,> 40 µM
ILPWYWPWWPWRR,Escherichia coli,,"peptide, K-12 MG1655, Mueller-Hinton broth","concentration not given, 37 °C, unit not given",baseline: no peptide,growth rate,0.326
